Experimental data pooled from the literature.
Method: steady-state kinetics
B1: SULT1A1 I89A (Homo sapiens, UniProt P50225); chain MELIQDTSRPPLEYVKGVPLIKYFAEALGPLQSFQARPDDLLISTYPKSGTTWVSQILDMIYQGGDLEKCHRAPIFMRVPFLEFKAPGAPSGMETLKDTPAPRLLKTHLPLALLPQTLLDQKVKVVYVARNAKDVAVSYYHFYHMAKVHPEPGTWDSFLEKFMVGEVSYGSWYQHVQEWWELSRTHPVLYLFYEDMKENPKREIQKILEFVGRSLPEETVDFVVQHTSFKEMKKNPMTNYTTVPQEFMDHSISPFMRKGMAGDWKTTFTVAQNERFDADYAEKMAGCSLSFRSEL
B2: enzyme (Triticum aestivum, UniProt A0A6J4BJM5); chain MPATQLPAGEAWDRRRELQAFDDTKAGVKGLVDAGVTALPPIFRHSPESLEGITSSNHVTGAIPTVDLSAARREDTVALVRRAAGTVGFFQVVNHGVPAELMAGMLEGVRRFNEGPAEAKQAIYSRDQARKVRFASNFDLFSSAAANWRDTLFFHLAPDPAPSQELPEAVRDVVTEYGKAVTKVALSVLELLSESLGLSSDHLRDMGCAENLNAVCQYYPPCPEPYLTWGTKRHTDPGFLTVLLQDGMGGLQVLVDHKTWVDVPPVPGAFIINIGDLLQLVSNDQFRSVEHRVLANKSKDTARVSVASFFNTDMERSTRLYGPITDGRNPPIYRSVTARDFIATFNRIGLDGRSLDHYRLDQHTPTPAVEGCE
B3: protein F222G (Planktothrix agardhii, UniProt F5B6Z0); chain MIVNVIQKDRLKEQKLQFIRNHQQAFDVEPIYPLPLFEDFVTSIEGDCSLEASCKIESDKLIASRFLLFFEDKTQEWQKYLHQSLTFFGLVENRVGVKINYSLLQQFLGSSFDFSKVTVLSAGIDLRNNLAESSLKMHIRIKDYPEKLDKAFALSDGAADGNYLKDFVNLIGFDFYFNGKSEIEIYAEVQEDDFFKPEINNLVWQHFPKTALQPLKASSLFGTGLSKANNNPVLYYHLKNRQDLTNYFKLNDTAQRVHSFYQHQDILPYMWVGTAQKELEKTRIENIRLYYYKSFKMESN
B4: enzyme (Acinetobacter baumannii, UniProt D0CBC8); chain MALVLDGRALAKQIEENLLVRVEALKAKTGRTPILATILVGDDGASATYVRMKGNACRRVGMDSLKIELPQETTTEQLLAEIEKLNANPDVHGILLQHPVPAQIDERACFDAISLAKDVDGVTCLGFGRMAMGEAAYGSATPAGIMTILKENNIEIAGKHAVVVGRSAILGKPMAMMLLQANATVTICHSRTQNLPELVKQADIIVGAVGKAELIQKDWIKQGAVVVDAGFHPRDGGGVGDIQLQGIEEIASAYTPVPGGVGPMTITTLIRQTVEAAEKALG
B5: DdmC (Stenotrophomonas maltophilia, UniProt Q5S3I3); chain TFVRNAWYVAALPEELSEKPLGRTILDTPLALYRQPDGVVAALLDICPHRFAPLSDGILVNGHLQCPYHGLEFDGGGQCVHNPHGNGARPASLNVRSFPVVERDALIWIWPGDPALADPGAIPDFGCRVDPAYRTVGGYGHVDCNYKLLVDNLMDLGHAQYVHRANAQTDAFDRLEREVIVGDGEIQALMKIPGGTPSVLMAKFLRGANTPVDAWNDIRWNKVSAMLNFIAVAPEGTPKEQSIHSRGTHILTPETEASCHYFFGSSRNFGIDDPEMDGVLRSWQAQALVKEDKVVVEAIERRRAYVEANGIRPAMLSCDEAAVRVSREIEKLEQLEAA
B6: UGT1A1 (Homo sapiens, UniProt P22309); chain HAGKILLIPVDGSHWLSMLGAIQQLQQRGHEIVVLAPDASLYIRDGAFYTLKTYPVPFQREDVKESFVSLGHNVFENDSFLQRVIKTYKKIKKDSAMLLSGCSHLLHNKELMASLAESSFDVMLTDPFLPCSPIVAQYLSLPTVFFLHALPCSLEFEATQCPNPFSYVPRPLSSHSDHMTFLQRVKNMLIAFSQNFLCDVVYSPYATLASEFLQREVTVQDLLSSASVWLFRSDFVKDYPRPIMPNMVFVGGINCLHQNPLSQEFEAYINASGEHGIVVFSLGSMVSEIPEKKAMAIADALGKIPQTVLWRYTGTRPSNLANNTILVKWLPQNDLLGHPMTRAFITHAGSHGVYESICNGVPMVMMPLFGDQMDNAKRMETKGAGVTLNVLEMTSEDLENALKAVINDKSYKENIMRLSSLHKDRPVEPLDLAVFWVEFVMRHKGAPHLRPAAHDLTWYQYHSLDVIGFLLAVVLTVAFITFKCCAYGYRKCLGKKGRVKKAHKSKTH
B7: enzyme (UniProt A0A2T5C445); chain MKSKQLNTDLFKVQAKQQIRLKNYDPASCNGFANRKEAEHQLKQDIKELADLQYQLYAENKRSVLIVFQAMDAAGKDGSIRHVFSGLNPQGCKVYSFKSPSANELDHDYLWRHYNKLPPRGEIGIFNRSHYENVLITRVHPEFLLNENLPDVHATNDITTEFWERRYRQIRDFEQTLTENGTTIIKFFLHLSKDEQKKRFMERIRKPAKNWKFSSADIRERQYWDDYQHAYEQAMRATSTEEAPWYIIPADNKWFTHVAIGNIIVETLQQMNIQMPEISSEEKDALKKAKKKLQNE
B8: Rtr1 residues 1-213 (Saccharomyces cerevisiae, UniProt P40084); chain MATIEDIKETALIPFQKHRQLSMHEAEVITLEIIGLLCDSECKDEKTLKYLGRFLTPDMYQDLVDERNLNKRCGYPLCGKSPERIRDPFSMNDTTKKFLLENNPYAYLSHYCSKFHFRCSQFYQVQLSDEALFARTGVHLFEDPEQDKHDIDFKVTLFEELLREKASEEDIKSLISGLKKLGLNPDSGTTEKDDTELEDDLSKWLAQIKIVEN
B9: UGT1A9 (Homo sapiens, UniProt O60656); chain GKLLVVPMDGSHWFTMRSVVEKLILRGHEVVVVMPEVSWQLGRSLNCTVKTYSTSYTLEDLDREFKAFAHAQWKAQVRSIYSLLMGSYNDIFDLFFSNCRSLFKDKKLVEYLKESSFDAVFLDPFDNCGLIVAKYFSLPSVVFARGILCHYLEEGAQCPAPLSYVPRILLGFSDAMTFKERVRNHIMHLEEHLLCHRFFKNALEIASEILQTPVTEYDLYSHTSIWLLRTDFVLDYPKPVMPNMIFIGGINCHQGKPLPMEFEAYINASGEHGIVVFSLGSMVSEIPEKKAMAIADALGKIPQTVLWRYTGTRPSNLANNTILVKWLPQNDLLGHPMTRAFITHAGSHGVYESICNGVPMVMMPLFGDQMDNAKRMETKGAGVTLNVLEMTSEDLENALKAVINDKSYKENIMRLSSLHKDRPVEPLDLAVFWVEFVMRHKGAPHLRPAAHDLTWYQYHSLDVIGFLLAVVLTVAFITFKCCAYGYRKCLGKKGRVKKAHKSKTH
B10: CMBL (Homo sapiens, UniProt Q96DG6); chain MANEAYPCPCDIGHRLEYGGLGREVQVEHIKAYVTKSPVDAGKAVIVIQDIFGWQLPNTRYIADMISGNGYTTIVPDFFVGQEPWDPSGDWSIFPEWLKTRNAQKIDREISAILKYLKQQCHAQKIGIVGFCWGGTAVHHLMMKYSEFRAGVSVYGIVKDSEDIYNLKNPTLFIFAENDVVIPLKDVSLLTQKLKEHCKVEYQIKTFSGQTHGFVHRKREDCSPADKPYIDEARRNLIEWLNKYM
B11: ycjQ (Escherichia coli, UniProt P76043); chain MKKLVATAPRVAALVEYEDRAILANEVKIRVRFGAPKHGTEVVDFRAASPFIDEDFNGEWQMFTPRPADAPRGIEFGKFQLGNMVVGDIIECGSDVTDYAVGDSVCGYGPLSETVIINAVNNYKLRKMPQGSSWKNAVCYDPAQFAMSGVRDANVRVGDFVVVVGLGAIGQIAIQLAKRAGASVVIGVDPIAHRCDIARRHGADFCLNPIGTDVGKEIKTLTGKQGADVIIETSGYADALQSALRGLAYGGTISYVAFAKPFAEGFNLGREAHFNNAKIVFSRACSEPNPDYPRWSRKRIEETCWELLMNGYLNCEDLIDPVVTFANSPESYMQYVDQHPEQSIKMGVTF
B12: enzyme A178R/D177A/G159A/M179S/P184R (Levilactobacillus brevis, UniProt Q03Q85); chain MKVTVVGCTHAGTFAIKQILAEHPDAEVTVYERNDVISFLSCGIALYLGGKVADPQGLFYSSPEELQKLGANVQMNHNVLAIDPDQKTVTVEDLTNHAQTTESYDKLVMTSGSWPIVPKIPGIDSDRVKLCKNWAHAQALIEDAKEAKRITVIGAGYIAAELAEAYSTTGHDVTLIARSARVMRKYFDADFTDVIEQDYRDHGVQLALGETVESFTDSATGLTIKTDKNSYETDLAILCIGFRPNTDLLKGKVDMAPNGAIITDDYMRSSNPDIFAAGDSAAVHYNPTHQNAYIPLATNAVRQGILVGKNLVKPTVKYMGTQSSSGLALYDRTIVSTGLTLAAAKQQGLNAEQVIVEDNYRPEFMPSTEPVLMSLVFDPDTHRILGGALMSKYDVSQSANTLSVCIQNENTIDDLAMVDMLFQPNFDRPFNYLNILAQAAQAKVAQSVNA
B13: protein (Pseudomonas putida, UniProt Q1XGK8); chain MKEIKHFINGAFVGSASGRTFEDINPSNGQVIGHVHEAGRAEVDAAVKAARAALKGPWGKLSVAERAEILHRVADGITARFDEFLEAECLDTGKPKSLASHIDIPRGAANFKVFADLLKNVANEAFEMATPDGAGAINYAVRRPKGVIGVISPWNLPLLLMTWKVGPALACGNTVVVKPSEETPLTATLLGEVMQAAGVPAGVYNVVHGFGGDSAGAFLTEHPDVDAYTFTGETGTGEVIMRAAAKGVRQVSLELGGKNAGIVFADCDMDKAIEGTLRSAFANCGQVCLGTERVYVERPIFDEFVARLKAGAESLMIGPPDDASSNFGPLVSLKHREKVLSYYQQAVDDGGSVITGGGVPDMPAHLAGGAWVQPTIWTGLSDDSAVVTEEIFGPCCHIRPFDTEEEAIELANSLPYGLASAIWTENGSRAHRVAGQIEAGIVWVNSWFLRDLRTAFGGSKQSGIGREGGVHSLEFYTELKNICVKL
B14: protein Y93S (Thermus thermophilus, UniProt Q5SKR5); chain MSAPKPFVIGIAGGTASGKTTLAQALARTLGERVALLPMDHYYKDLGHLPLEERLRVNYDHPDAFDLALYLEHAQALLRGLPVEMPVYDFRASTRSPRRTPVRPAPVVILEGILVLYPKELRDLMDLKVFVDADADERFIRRLKRDVLERGRSLEGVVAQYLEQVKPMHLHFVEPTKRYADVIVPRGGQNPVALEMLAAKALARLARMGAA
Chain of UniProt Q06520 (whole entry, looked up): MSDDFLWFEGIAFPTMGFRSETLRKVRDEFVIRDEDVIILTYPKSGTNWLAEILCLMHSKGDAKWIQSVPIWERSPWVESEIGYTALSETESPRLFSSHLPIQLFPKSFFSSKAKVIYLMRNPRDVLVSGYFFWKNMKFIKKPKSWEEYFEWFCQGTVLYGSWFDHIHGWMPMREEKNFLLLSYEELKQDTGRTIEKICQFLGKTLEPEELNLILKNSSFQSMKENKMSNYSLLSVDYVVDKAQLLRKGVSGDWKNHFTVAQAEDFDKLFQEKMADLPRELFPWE

Molecule = AphC (Rhodococcus jostii, UniProt Q0S9X1); substrate = Cc1ccc(O)c(O)c1; pH = pH 8; temperature = 25 °C; setting = apparent; with = O2; Km = 2.8 µM
Molecule = SULT2A1 (Homo sapiens, UniProt Q06520); substrate = C[C@]12CC[C@H](O)CC1=CC[C@@H]1[C@@H]2CC[C@]2(C)C(=O)CC[C@@H]12; pH = pH 7.4; temperature = 25 °C; Km = 1.3 µM
Molecule = B1 (SULT1A1 I89A); substrate = Oc1ccc2ccccc2c1; pH = pH 7.2; temperature = 25 °C; with = PAPS 0.020–0.50 µM; Km = 2.7 µM
Molecule = B2 (enzyme); substrate = O=C1[C@@H](O[C@@H]2O[C@H](CO)[C@@H](O)[C@H](O)[C@H]2O)Oc2ccccc2N1O; pH = pH 7.2; temperature = 30 °C; Km = 217 µM
Molecule = B3 (protein F222G); substrate = CC(C)=CCOP(=O)(O)OP(=O)(O)O; with = tri-Tyr peptide acceptor; Km = 1250 µM
Molecule = B4 (enzyme); substrate = Nc1nc2c(c(=O)[nH]1)N1CN(c3ccc(C(=O)N[C@@H](CCC(=O)O)C(=O)O)cc3)C[C@H]1CN2; pH = pH 7.3; temperature = 27 °C; Km = 26.8 µM
Molecule = B5 (DdmC); substrate = COc1c(Cl)ccc(Cl)c1C(=O)O; setting = apparent; with = NADH 1 mM; Km = 22 µM
Molecule = B6 (UGT1A1); substrate = COc1cc2c(cc1CC=C(C)C)C(=O)C[C@@H](c1ccc(O)cc1)O2; pH = pH 7.4; temperature = 37 °C; Km = 3 µM
Molecule = B7 (enzyme); substrate = Nc1nc2c(ncn2[C@@H]2O[C@H](COP(=O)(O)O)[C@@H](O)[C@H]2O)c(=O)[nH]1; pH = pH 8; temperature = 30 °C; Km = 3600 µM
Molecule = B8 (Rtr1 residues 1-213); substrate = Cc1cc(=O)oc2c(F)c(OP(=O)(O)O)c(F)cc12; pH = pH 6; setting = NaCl 150 mM, no metal added; Km = 41.2 µM
Molecule = B9 (UGT1A9); substrate = O=c1cc(-c2ccccc2)oc2cc(O)c(O)cc12; pH = pH 7.4; temperature = 37 °C; Km = 4.49 µM
Molecule = B10 (CMBL); substrate = Cc1oc(=O)oc1COC(=O)C1=C([C@H]2CCCO2)S[C@@H]2[C@@H]([C@@H](C)O)C(=O)N12; medium = lysate; pH = pH 7.4; temperature = 37 °C; setting = not purified; Km = 283 µM
Molecule = B11 (ycjQ); substrate = CO[C@H]1O[C@H](CO)[C@H](O)C(=O)[C@H]1O; pH = pH 7; temperature = 30 °C; with = NADH 0.3 mM, MnCl2 0.5 mM; Km = 9400 µM
Molecule = B12; substrate = NC(=O)C1=CN([C@@H]2O[C@H](COP(=O)(O)OP(=O)(O)OC[C@H]3O[C@@H](n4cnc5c(N)ncnc54)[C@H](OP(=O)(O)O)[C@@H]3O)[C@@H](O)[C@H]2O)C=CC1; pH = pH 7.5; temperature = 37 °C; Km = 24 µM
Molecule = B13 (protein); substrate = O=C/C=C/C=C(\O)C(=O)O; pH = pH 8.5; temperature = 25 °C; setting = NaCl 50 mM; with = NAD+ 200 µM; Km = 1.3 µM
Molecule = B14 (protein Y93S); substrate = Nc1ccn([C@@H]2O[C@H](CO)[C@@H](O)[C@H]2O)c(=O)n1; pH = pH 7.2; temperature = 25 °C; setting = KCl 100 mM; with = ATP 100–200 µM; Km = 225 µM
Molecule = protein (UniProt M4ZR24); substrate = O=c1ccn([C@@H]2O[C@H](CO)[C@@H](O)[C@H]2O)c(=O)[nH]1; setting = phosphorolysis, single substrate; with = phosphate; Km = 430 µM

Excerpt of the above:
Molecule = B10 (CMBL); substrate = Cc1oc(=O)oc1COC(=O)C1=C([C@H]2CCCO2)S[C@@H]2[C@@H]([C@@H](C)O)C(=O)N12; medium = lysate; pH = pH 7.4; temperature = 37 °C; setting = not purified; Km = 283 µM
Molecule = B11 (ycjQ); substrate = CO[C@H]1O[C@H](CO)[C@H](O)C(=O)[C@H]1O; pH = pH 7; temperature = 30 °C; with = NADH 0.3 mM, MnCl2 0.5 mM; Km = 9400 µM
